Results collected from several papers.
pIC50, pKd: −log10 of the molar value.
TEAD4: Transcriptional enhancer factor TEF-3 (TEAD4, Homo sapiens, UniProt Q15561)
UniProt Q15561, sequence (whole entry, looked up): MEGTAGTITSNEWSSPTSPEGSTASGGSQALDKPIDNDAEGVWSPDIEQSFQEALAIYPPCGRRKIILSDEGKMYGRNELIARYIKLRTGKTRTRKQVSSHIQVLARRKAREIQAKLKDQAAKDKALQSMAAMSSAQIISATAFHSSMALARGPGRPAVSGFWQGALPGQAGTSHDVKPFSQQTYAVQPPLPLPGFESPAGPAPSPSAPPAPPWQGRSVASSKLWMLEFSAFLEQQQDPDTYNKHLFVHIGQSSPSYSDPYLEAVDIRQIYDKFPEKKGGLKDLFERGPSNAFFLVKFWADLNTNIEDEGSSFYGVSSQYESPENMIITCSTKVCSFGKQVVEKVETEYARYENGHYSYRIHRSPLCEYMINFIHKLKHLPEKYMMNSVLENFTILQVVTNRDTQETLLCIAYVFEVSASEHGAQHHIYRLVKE
4'-phosphopantetheinyl transferase PptT: 4'-phosphopantetheinyl transferase PptT (Mycobacterium tuberculosis, UniProt O33336)
UniProt O33336, sequence (whole entry, looked up): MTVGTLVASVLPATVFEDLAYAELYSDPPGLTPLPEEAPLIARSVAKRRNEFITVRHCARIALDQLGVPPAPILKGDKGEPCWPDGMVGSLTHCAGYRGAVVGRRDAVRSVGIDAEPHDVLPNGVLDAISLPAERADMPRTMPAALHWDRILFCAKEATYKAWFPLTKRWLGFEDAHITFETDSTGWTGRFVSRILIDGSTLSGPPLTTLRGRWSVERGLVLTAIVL
ENAH: Protein enabled homolog (ENAH, UniProt Q8N8S7)
UniProt Q8N8S7, sequence (whole entry, looked up): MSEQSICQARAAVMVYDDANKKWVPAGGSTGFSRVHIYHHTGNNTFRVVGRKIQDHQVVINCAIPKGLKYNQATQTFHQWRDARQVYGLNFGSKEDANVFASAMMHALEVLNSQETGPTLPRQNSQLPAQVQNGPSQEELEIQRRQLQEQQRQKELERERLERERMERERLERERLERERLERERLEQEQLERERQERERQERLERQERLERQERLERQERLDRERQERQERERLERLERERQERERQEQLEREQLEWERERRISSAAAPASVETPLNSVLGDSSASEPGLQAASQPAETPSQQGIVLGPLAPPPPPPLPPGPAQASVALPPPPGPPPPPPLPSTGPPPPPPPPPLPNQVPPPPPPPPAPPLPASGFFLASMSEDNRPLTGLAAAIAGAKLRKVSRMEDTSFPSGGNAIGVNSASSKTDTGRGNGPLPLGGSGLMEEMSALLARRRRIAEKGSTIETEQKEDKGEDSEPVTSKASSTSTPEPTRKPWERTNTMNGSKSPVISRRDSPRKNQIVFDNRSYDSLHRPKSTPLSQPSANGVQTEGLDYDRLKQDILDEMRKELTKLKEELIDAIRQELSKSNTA
UniProt P04637, sequence (whole entry, looked up): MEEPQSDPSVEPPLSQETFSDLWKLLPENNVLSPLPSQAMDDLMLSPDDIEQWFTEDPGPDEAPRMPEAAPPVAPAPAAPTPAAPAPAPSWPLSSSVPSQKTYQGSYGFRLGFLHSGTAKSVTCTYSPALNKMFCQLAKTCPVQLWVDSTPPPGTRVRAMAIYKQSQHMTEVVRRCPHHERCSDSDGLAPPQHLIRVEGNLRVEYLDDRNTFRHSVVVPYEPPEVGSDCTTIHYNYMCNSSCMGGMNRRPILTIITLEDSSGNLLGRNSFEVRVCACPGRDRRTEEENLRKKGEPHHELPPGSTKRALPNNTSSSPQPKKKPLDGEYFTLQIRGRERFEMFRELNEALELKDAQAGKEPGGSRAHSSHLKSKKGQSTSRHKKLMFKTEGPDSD
UniProt P30048, sequence (whole entry, looked up): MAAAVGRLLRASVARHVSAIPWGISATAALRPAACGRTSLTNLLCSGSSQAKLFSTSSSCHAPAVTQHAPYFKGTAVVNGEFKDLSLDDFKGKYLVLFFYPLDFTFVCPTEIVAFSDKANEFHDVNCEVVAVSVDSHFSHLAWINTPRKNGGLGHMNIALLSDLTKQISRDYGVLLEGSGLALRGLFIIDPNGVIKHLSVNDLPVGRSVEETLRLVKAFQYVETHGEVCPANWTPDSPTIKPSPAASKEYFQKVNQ
UniProt Q9H252, sequence (whole entry, looked up): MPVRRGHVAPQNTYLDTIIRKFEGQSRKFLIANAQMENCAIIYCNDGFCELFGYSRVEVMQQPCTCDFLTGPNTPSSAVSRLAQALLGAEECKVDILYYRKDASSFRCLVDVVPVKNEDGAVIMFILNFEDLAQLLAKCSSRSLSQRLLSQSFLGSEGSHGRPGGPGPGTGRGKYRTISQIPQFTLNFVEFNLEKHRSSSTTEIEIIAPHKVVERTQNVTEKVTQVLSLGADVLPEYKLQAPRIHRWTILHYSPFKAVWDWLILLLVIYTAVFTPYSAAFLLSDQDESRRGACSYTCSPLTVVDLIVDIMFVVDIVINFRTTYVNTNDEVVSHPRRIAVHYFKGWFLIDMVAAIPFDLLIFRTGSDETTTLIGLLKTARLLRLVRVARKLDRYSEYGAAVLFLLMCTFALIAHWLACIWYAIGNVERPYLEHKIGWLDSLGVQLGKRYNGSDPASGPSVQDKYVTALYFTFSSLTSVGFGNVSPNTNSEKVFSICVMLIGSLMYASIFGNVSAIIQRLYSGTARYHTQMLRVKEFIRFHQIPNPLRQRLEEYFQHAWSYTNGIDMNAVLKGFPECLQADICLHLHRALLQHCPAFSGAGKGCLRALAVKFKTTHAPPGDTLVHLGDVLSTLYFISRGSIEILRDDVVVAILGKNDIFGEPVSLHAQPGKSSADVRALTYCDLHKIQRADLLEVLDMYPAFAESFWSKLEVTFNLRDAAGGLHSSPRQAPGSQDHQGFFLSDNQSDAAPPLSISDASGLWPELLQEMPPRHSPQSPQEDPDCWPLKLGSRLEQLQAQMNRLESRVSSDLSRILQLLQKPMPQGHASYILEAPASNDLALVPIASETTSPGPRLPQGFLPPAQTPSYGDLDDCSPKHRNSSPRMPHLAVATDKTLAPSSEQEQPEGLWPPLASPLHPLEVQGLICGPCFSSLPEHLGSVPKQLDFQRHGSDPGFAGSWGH
UniProt P46937, sequence (whole entry, looked up): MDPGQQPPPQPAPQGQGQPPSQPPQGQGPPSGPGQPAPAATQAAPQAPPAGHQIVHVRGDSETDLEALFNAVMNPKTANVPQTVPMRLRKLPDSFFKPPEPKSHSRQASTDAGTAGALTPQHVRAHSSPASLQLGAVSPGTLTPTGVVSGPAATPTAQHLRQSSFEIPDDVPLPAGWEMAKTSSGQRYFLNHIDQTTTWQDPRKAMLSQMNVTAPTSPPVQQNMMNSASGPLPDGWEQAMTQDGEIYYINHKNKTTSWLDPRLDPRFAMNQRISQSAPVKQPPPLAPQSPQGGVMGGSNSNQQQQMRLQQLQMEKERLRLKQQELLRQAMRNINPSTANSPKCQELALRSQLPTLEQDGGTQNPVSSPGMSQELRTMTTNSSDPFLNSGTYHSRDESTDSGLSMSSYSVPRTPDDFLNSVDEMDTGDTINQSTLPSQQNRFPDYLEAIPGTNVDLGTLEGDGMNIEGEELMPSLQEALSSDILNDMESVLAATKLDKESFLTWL
UniProt Q9UJS0, sequence (whole entry, looked up): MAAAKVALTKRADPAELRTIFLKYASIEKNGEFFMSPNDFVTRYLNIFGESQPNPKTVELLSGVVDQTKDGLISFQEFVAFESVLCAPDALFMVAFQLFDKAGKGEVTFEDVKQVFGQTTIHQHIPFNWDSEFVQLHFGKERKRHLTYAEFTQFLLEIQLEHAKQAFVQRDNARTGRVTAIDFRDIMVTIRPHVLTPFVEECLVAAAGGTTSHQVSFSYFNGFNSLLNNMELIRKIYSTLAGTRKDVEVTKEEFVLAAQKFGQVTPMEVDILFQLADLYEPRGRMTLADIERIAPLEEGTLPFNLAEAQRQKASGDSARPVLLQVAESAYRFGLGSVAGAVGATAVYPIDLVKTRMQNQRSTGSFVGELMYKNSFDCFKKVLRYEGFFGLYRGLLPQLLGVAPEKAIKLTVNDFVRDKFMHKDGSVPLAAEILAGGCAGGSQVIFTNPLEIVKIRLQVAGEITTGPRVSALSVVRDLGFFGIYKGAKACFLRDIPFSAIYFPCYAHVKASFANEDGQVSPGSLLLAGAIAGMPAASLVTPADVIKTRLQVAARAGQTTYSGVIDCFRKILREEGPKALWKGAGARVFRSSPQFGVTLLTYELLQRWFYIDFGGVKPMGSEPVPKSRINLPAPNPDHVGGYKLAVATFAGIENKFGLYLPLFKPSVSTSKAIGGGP
UniProt P07148, sequence (whole entry, looked up): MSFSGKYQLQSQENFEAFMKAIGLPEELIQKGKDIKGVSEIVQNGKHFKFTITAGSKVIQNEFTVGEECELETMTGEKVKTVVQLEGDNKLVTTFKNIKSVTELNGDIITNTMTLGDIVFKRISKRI
UniProt Q9BQI3, sequence (whole entry, looked up): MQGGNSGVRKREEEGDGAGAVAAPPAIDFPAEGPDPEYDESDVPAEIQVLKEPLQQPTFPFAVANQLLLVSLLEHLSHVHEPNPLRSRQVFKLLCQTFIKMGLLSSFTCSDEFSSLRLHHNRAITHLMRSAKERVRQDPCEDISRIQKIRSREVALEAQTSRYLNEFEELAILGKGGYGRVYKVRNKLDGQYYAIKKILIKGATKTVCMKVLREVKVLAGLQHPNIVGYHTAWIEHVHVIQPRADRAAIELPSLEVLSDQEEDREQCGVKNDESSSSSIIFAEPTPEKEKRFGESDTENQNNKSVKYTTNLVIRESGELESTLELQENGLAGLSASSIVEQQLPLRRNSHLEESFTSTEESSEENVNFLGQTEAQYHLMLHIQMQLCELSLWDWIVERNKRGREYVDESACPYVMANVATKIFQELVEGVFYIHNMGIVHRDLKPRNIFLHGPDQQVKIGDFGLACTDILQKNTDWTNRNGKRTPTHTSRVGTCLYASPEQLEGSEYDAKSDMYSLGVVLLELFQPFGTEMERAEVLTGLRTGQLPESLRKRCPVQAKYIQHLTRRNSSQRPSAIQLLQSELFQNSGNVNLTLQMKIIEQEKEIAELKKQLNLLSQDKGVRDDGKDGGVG

The remaining binding of `[2H]c1c([2H])c([C@]2([2H])CCCN2C(=O)C(C)(C)Oc2ccc3cn[nH]c3c2)c([2H])c([2H])c1C([2H])([2H])[2H]` is reported as 86% (EIF2AK1 (Homo sapiens, UniProt Q9BQI3); binding, competition with immobilised ligand; 1 µM).
The pKd of `CSCC[C@H](NC(=O)[C@@H]1CCCN1C(=O)[C@@H](N)C(C)C)C(=O)N[C@@H](CCCNC(=N)N)C(=O)N[C@@H](CC(C)C)C(=O)N[C@@H](CCCNC(=N)N)C(=O)N[C@@H](CCCCN)C(=O)N[C@@H](CC(C)C)C(=O)N1CCC[C@H]1C(=O)N[C@@H](C)C(=O)N[C@@H](CO)C(=O)N[C@@H](Cc1ccccc1)C(=O)N[C@@H](Cc1ccccc1)C(=O)N[C@@H](CCCCN)C(=O)N[C@@H](CCSC)C(=O)N1CCC[C@H]1C(=O)N[C@@H](CCC(=O)O)C(=O)O` is reported as 4.33 (TEAD4; binding, SPR; pH 7.4).
The pIC50 of `O=c1[nH]c2ccc(Cl)cc2c(=O)n1Cc1cccnc1` is reported as 5.22 (4'-phosphopantetheinyl transferase PptT; enzyme activity, inhibitor, FP).
The pKd of `CC[C@H](C)[C@H](NC(=O)[C@H](C)NC(=O)[C@H](CCC(=O)O)NC(=O)[C@H](CC(=O)O)NC(=O)[C@H](Cc1ccccc1)NC(=O)[C@@H](NC(=O)[C@H](C)N)C(C)C)C(=O)N[C@@H](CC(C)C)C(=O)N[C@H](C(=O)N[C@H](C(=O)N[C@@H](Cc1ccccc1)C(=O)N[C@@H](Cc1c[nH]cn1)C(=O)N1CCC[C@H]1C(=O)N[C@@H](CCCCN)C(=O)O)[C@@H](C)CC)[C@@H](C)O` is reported as 4.27 (GLUL (Homo sapiens, UniProt P15104); binding, SPR).
With `O=C(NS(=O)(=O)/C=C/c1cccs1)c1ccc(F)cc1Br` the pKd was 5.09 (FABP1 (Homo sapiens, UniProt P07148); ligand displacement, fluorescence).
For `Cc1nn(C)cc1-c1nc2c(N3CCN(Cc4ccc(Cl)cc4)CC3)c(Cl)cnc2[nH]1`, the remaining binding was 75% (CDK16 (Homo sapiens, UniProt Q00536); binding, competition with immobilised ligand; 1 µM).
`CC(C)C[C@H](NC(=O)[C@H](CCCNC(=N)N)NC(=O)[C@H](CCCNC(=N)N)NC(=O)[C@@H]1CCCN1C(=O)[C@@H](N)C(C)C)C(=O)N[C@@H](CCCNC(=N)N)C(=O)N[C@@H](CCCCN)C(=O)N[C@@H](CC(C)C)C(=O)N1CCC[C@H]1C(=O)N[C@@H](C)C(=O)N[C@@H](CO)C(=O)N[C@@H](Cc1ccccc1)C(=O)N[C@@H](Cc1ccccc1)C(=O)N[C@@H](CCCCN)C(=O)N1CCC[C@H]1C(=O)N1CCC[C@H]1C(=O)N[C@@H](CCC(=O)O)C(=O)O` has a pKd of 4.63 (TEAD4; binding, SPR; pH 7.4).
With `CC[C@H](C)[C@H](NC(=O)[C@H](Cc1c[nH]cn1)NC(=O)[C@@H](N)CCC(=O)O)C(=O)N1CCC[C@H]1C(=O)N1CCC[C@H]1C(=O)N1CCC[C@H]1C(=O)N1CCC[C@H]1C(=O)N[C@@H](CCCNC(=N)N)C(=O)N1CCC[C@H]1C(=O)N1CCC[C@H]1C(=O)N[C@@H](CCCCN)C(=O)N[C@@H](CCCNC(=N)N)C(=O)O` the pKd was 4.86 (ENAH; binding, fluorescence).
The remaining binding of `Nc1ncc(-c2nc(N3CCOCC3)nc(N3CCOCC3)n2)c(C(F)F)n1` is reported as 92% (NEK5 (Homo sapiens, UniProt Q6P3R8); binding, competition with immobilised ligand; 10 µM).
The pKd of `CSCC[C@H](NC(=O)[C@H](CCCNC(=N)N)NC(=O)[C@@H](N)C(C)C)C(=O)N[C@@H](CCCNC(=N)N)C(=O)N[C@@H](CC(C)C)C(=O)N[C@@H](CCCNC(=N)N)C(=O)N[C@@H](CCCCN)C(=O)N[C@@H](CC(C)C)C(=O)N[C@@H](CCCNC(=N)N)C(=O)N[C@@H](C)C(=O)N[C@@H](CO)C(=O)N[C@@H](Cc1ccccc1)C(=O)N[C@@H](Cc1ccccc1)C(=O)N[C@@H](CCCCN)C(=O)N1CCC[C@H]1C(=O)N[C@@H](CCCNC(=N)N)C(=O)N[C@@H](CCC(=O)O)C(=O)O` is reported as 5.34 (TEAD4; binding, SPR; pH 7.4).
For `COC(CNC(=O)c1ccccc1OCC(=O)O)[CH2][Hg][OH]` (stereo not drawn), the pKd was 7.93 (SLC25A13 (Homo sapiens, UniProt Q9UJS0); binding, ITC; pH 6.5).
The pKd of `CSCC[C@H](NC(=O)[C@@H]1CCCN1C(=O)[C@@H](N)C(C)C)C(=O)N[C@@H](CCCNC(=N)N)C(=O)N[C@@H](CC(C)C)C(=O)N[C@@H](CCCNC(=N)N)C(=O)N[C@@H](CCCCN)C(=O)N[C@@H](CC(C)C)C(=O)N[C@@H](CCCNC(=N)N)C(=O)N[C@@H](C)C(=O)N[C@@H](CO)C(=O)N[C@@H](Cc1ccccc1)C(=O)N[C@@H](Cc1ccccc1)C(=O)N[C@@H](CCCCN)C(=O)N1CCC[C@H]1C(=O)N1CCC[C@H]1C(=O)N[C@@H](CCC(=O)O)C(=O)O` is reported as 4.62 (TEAD4; binding, SPR; pH 7.4).
`CC[C@H]1CN2CC[C@]3(C(=O)Nc4ccccc43)[C@@H]2C[C@@H]1/C(=C\OC)C(=O)OC` gave a pKd of 5.82 (PRDX3 (Homo sapiens, UniProt P30048); binding, SPR).
For `C[C@@]1(C(=O)O)CC[C@]2(C)CC[C@]3(C)C4=CC(=O)c5c(cc(O)c(O)c5C=O)[C@]4(C)CC[C@@]3(C)[C@@H]2C1`, the pKd was 5.63 (TP53 (Homo sapiens, UniProt P04637); binding, SPR).
The pKd of `NCCCC[C@H](N)C(=O)O` is reported as 1.71 (KCNH6 (Homo sapiens, UniProt Q9H252); binding, MST).
For `CC(=O)N[C@H](C(=O)N[C@@H](CC(=O)O)C(=O)N[C@@H](CC(=O)O)C(=O)N[C@@H](Cc1ccccc1)C(=O)N[C@@H](CC(=O)O)C(=O)N[C@@H](CCCNC(=N)N)C(=O)N[C@H](C(=O)N[C@@H](Cc1c[nH]c2ccccc12)C(=O)N[C@@H](CCC(N)=O)C(=O)NCC(=O)N[C@@H](CC(C)C)C(=O)N[C@H](C(=O)NCC(=O)N[C@@H](CC(C)C)C(N)=O)C(C)C)C(C)C)C(C)C`, the pKd was 4.48 (MDM2 (Homo sapiens, UniProt Q00987); binding, BLI).
With `CC(C)C[C@H](NC(=O)[C@H](CCC(=O)O)NC(=O)[C@H](CCC(=O)O)NC(=O)[C@H](CC(=O)O)NC(=O)[C@@H](NC(=O)[C@@H]1CCCN1C(=O)[C@@H]1CCCN1C(=O)[C@@H]1CCCN1C(=O)[C@@H]1CCCN1C(=O)[C@H](Cc1ccccc1)NC(=O)[C@@H](N)CC(=O)O)[C@@H](C)O)C(=O)O` the pKd was 4.87 (ENAH; binding, fluorescence).
For `CSCC[C@H](NC(=O)[C@H](CCCNC(=N)N)NC(=O)[C@@H](N)C(C)C)C(=O)N[C@@H](CCCNC(=N)N)C(=O)N[C@@H](CC(C)C)C(=O)N[C@@H](CCCNC(=N)N)C(=O)N[C@@H](CCCCN)C(=O)N[C@@H](CC(C)C)C(=O)N1CCC[C@H]1C(=O)N[C@@H](C)C(=O)N[C@@H](CO)C(=O)N[C@@H](Cc1ccccc1)C(=O)N[C@@H](Cc1ccccc1)C(=O)N[C@@H](CCCCN)C(=O)N1CCC[C@H]1C(=O)N1CCC[C@H]1C(=O)N[C@@H](CCC(=O)O)C(=O)O`, the pKd was 4.62 (TEAD4; binding, SPR; pH 7.4).
`COc1ncccc1-c1cnn2ccc(N3CCN(C(=O)OC(C)C)CC3)nc12` has a remaining binding of 100% (GRK1 (Homo sapiens, UniProt Q15835); binding, competition with immobilised ligand; 1 µM).
`O=C(O)c1cc2[nH]c(=S)n(Cc3cccnc3)c(=O)c2cc1Cl` has a pIC50 of < 4.00 (4'-phosphopantetheinyl transferase PptT; enzyme activity, inhibitor, FP).
`C=CC1(C)CCC(C(=C)C)C(c2c[nH]c3ccccc23)C1N=C=S` (single isomer, unassigned; (-)) gave a pKd of 4.64 (YAP1 (Homo sapiens, UniProt P46937); binding, BLI).

For quick reference, copied from above:
The pKd of `CSCC[C@H](NC(=O)[C@@H]1CCCN1C(=O)[C@@H](N)C(C)C)C(=O)N[C@@H](CCCNC(=N)N)C(=O)N[C@@H](CC(C)C)C(=O)N[C@@H](CCCNC(=N)N)C(=O)N[C@@H](CCCCN)C(=O)N[C@@H](CC(C)C)C(=O)N[C@@H](CCCNC(=N)N)C(=O)N[C@@H](C)C(=O)N[C@@H](CO)C(=O)N[C@@H](Cc1ccccc1)C(=O)N[C@@H](Cc1ccccc1)C(=O)N[C@@H](CCCCN)C(=O)N1CCC[C@H]1C(=O)N1CCC[C@H]1C(=O)N[C@@H](CCC(=O)O)C(=O)O` is reported as 4.62 (TEAD4; binding, SPR; pH 7.4).
`CC[C@H]1CN2CC[C@]3(C(=O)Nc4ccccc43)[C@@H]2C[C@@H]1/C(=C\OC)C(=O)OC` gave a pKd of 5.82 (PRDX3 (Homo sapiens, UniProt P30048); binding, SPR).
